Assay results pooled from the literature.
Compare with care: the assays were run in different laboratories. ± gives the spread as reported.

N=C(N)NCCC[C@@H]1NC(=O)[C@H](CCCCNC(=O)CNC(=O)CNC(=O)CNC(=O)c2ccc(NN=Cc3ccccc3S(=O)(=O)O)nc2)NC(=O)[C@@H](Cc2ccccc2)NC(=O)[C@H](CC(=O)O)NC(=O)CNC1=O [technetium-99m labelled] — tissue uptake (athymic nu/nu mouse, female, U-87 MG glioma xenograft, kidney; intravenous, 30 min): 10.9 ± 2.02 %ID/g
CSCC[C@H](NC(=O)[C@H](CC(C)C)NC(=O)[C@H](Cc1c[nH]cn1)NC(=O)CNC(=O)[C@@H](NC(=O)[C@H](C)NC(=O)[C@H](Cc1c[nH]c2ccccc12)NC(=O)[C@H](CCC(N)=O)NC(=O)CCCCCNC(=O)CNC(=O)CNC(=O)CNC(=O)CSC(C)=O)C(C)C)C(N)=O [technetium-99m labelled] — tissue uptake (Swiss mouse, muscle; intravenous, 18.5 MBq, 240 min): 0.06 ± 0.02 %ID/g
CCCC[C@H](NC(=O)[C@H](Cc1cccs1)NC(=O)[C@H](Cc1c[nH]cn1)NC(=O)CCNC(=O)[C@@H](NC(=O)[C@H](C)NC(=O)[C@H](Cc1c[nH]c2ccccc12)NC(=O)[C@H](CCC(N)=O)NC(=O)[C@H](Cc1cccs1)NC(=O)CN1CCC(NC(=O)CN(CCN(CCN(CC(=O)O)CC(=O)O)CC(=O)O)CC(=O)O)CC1)C(C)C)C(N)=O [indium-111 labelled] — tissue uptake (Swiss nu/nu mouse, male, PC-3 tumour xenograft, colon; intravenous, 10 pmol, 1 h): 2.5 ± 0.4 %ID/g
CCCC[C@H](NC(=O)CCCCCCCNC(=O)c1ccc(NN)nc1)C(=O)N[C@H]1CC(=O)NCCCC[C@@H](C(N)=O)NC(=O)[C@H](Cc2c[nH]c3ccccc23)NC(=O)[C@H](CCCNC(=N)N)NC(=O)[C@@H](Cc2ccccc2)NC(=O)[C@H](Cc2c[nH]cn2)NC1=O [technetium-99m labelled] — tissue uptake (C57 mouse, B16/F1 melanoma, muscle; 2 h, with: NDP-MSH 10 µg (6.07 nmol) co-injected): 0.06 ± 0.05 %ID/g
N=C(N)NCCC[C@@H]1NC(=O)[C@H](CCCCNC(=O)CCOCCOCCOCCOCCNC(=O)CC[C@H](NC(=O)CCOCCOCCOCCOCCNC(=O)CC[C@H](NC(=O)CN2CCN(CC(=O)O)CCN(CC(=O)O)CCN(CC(=O)O)CC2)C(=O)NCCOCCOCCOCCOCCC(=O)N[C@@H](CCC(=O)NCCOCCOCCOCCOCCC(=O)NCCCC[C@@H]2NC(=O)[C@@H](Cc3ccccc3)NC(=O)[C@H](CC(=O)O)NC(=O)CNC(=O)[C@H](CCCNC(=N)N)NC2=O)C(=O)NCCOCCOCCOCCOCCC(=O)NCCCC[C@@H]2NC(=O)[C@@H](Cc3ccccc3)NC(=O)[C@H](CC(=O)O)NC(=O)CNC(=O)[C@H](CCCNC(=N)N)NC2=O)C(=O)NCCOCCOCCOCCOCCC(=O)NCCCC[C@@H]2NC(=O)[C@@H](Cc3ccccc3)NC(=O)[C@H](CC(=O)O)NC(=O)CNC(=O)[C@H](CCCNC(=N)N)NC2=O)NC(=O)[C@@H](Cc2ccccc2)NC(=O)[C@H](CC(=O)O)NC(=O)CNC1=O [indium-111 labelled] — tissue uptake (athymic nude mouse U-87 MG xenograft, lungs; intravenous, 1 h, with: RGD2 co-injected 14 mg/kg): 1.2 %ID/g
N=C(N)NCCC[C@@H]1NC(=O)[C@H](CCCCNC(=O)CCC(NC(=S)Nc2ccc(CC3CN(CC(=O)O)CCN(CC(=O)O)CCN(CC(=O)O)CCN3CC(=O)O)cc2)C(=O)NCCCC[C@@H]2NC(=O)[C@@H](Cc3ccc(O)cc3)NC(=O)[C@H](CC(=O)O)NC(=O)CNC(=O)[C@H](CCCNC(=N)N)NC2=O)NC(=O)[C@@H](Cc2ccc(O)cc2)NC(=O)[C@H](CC(=O)O)NC(=O)CNC1=O (stereo partly drawn) [scandium-44 labelled] — tissue uptake (PET imaging; female athymic nude mouse, U-87 MG xenograft tumour; intravenous, 5.5 to 7.4 MBq, 0.5 h): 3.93 ± 1.19 %ID/g
N=C(N)NCCC[C@@H]1NC(=O)[C@H](CCCCNC(=O)CNC(=O)CNC(=O)CNC(=O)CC[C@H](NC(=O)CNC(=O)CNC(=O)CNC(=O)c2ccc(NN=Cc3ccccc3S(=O)(=O)O)nc2)C(=O)NCC(=O)NCC(=O)NCC(=O)NCCCC[C@@H]2NC(=O)[C@@H](Cc3ccccc3)NC(=O)[C@H](CC(=O)O)NC(=O)CNC(=O)[C@H](CCCNC(=N)N)NC2=O)NC(=O)[C@@H](Cc2ccccc2)NC(=O)[C@H](CC(=O)O)NC(=O)CNC1=O [technetium-99m labelled] — tissue uptake (athymic nu/nu mouse, female, MDA-MB-435 xenograft, blood; intravenous, 30 min): 1.09 ± 0.2 %ID/g
CSCC[C@H](NC(=O)[C@H](CC(C)C)NC(=O)[C@H](Cc1c[nH]cn1)NC(=O)CNC(=O)[C@@H](NC(=O)[C@H](C)NC(=O)[C@H](Cc1c[nH]c2ccccc12)NC(=O)[C@H](CCC(N)=O)NC(=O)[C@H](CC(N)=O)NC(=O)CNC(=O)[C@H](Cc1ccc(O)cc1)NC(=O)[C@H](CCCNC(=N)N)NC(=O)[C@H](CCC(N)=O)NC(=O)[C@@H]1CCCN1C(=O)CN1CCN(CC(=O)O)CCN(CC(=O)O)CCN(CC(=O)O)CC1)C(C)C)C(N)=O [indium-111 labelled] — tissue uptake (Swiss nu/nu mouse, male, PC-3 tumour xenograft, pancreas; intravenous, 10 pmol, 24 h): 5.8 ± 1.4 %ID/g
N=C(N)NCCC[C@@H]1NC(=O)[C@H](CC(=O)NC23CNCCNCC(N)(CNCCNC2)CNCCNC3)NC(=O)[C@@H](Cc2ccccc2)NC(=O)[C@H](CC(=O)O)NC(=O)CNC1=O [copper-64 labelled] — tissue uptake (Nu/Nu mouse, male, tumour-bearing, muscle; intravenous, 10 µCi, 1 h): 0.81 ± 0.36 %ID/g

Excerpt of the above:
N=C(N)NCCC[C@@H]1NC(=O)[C@H](CCCCNC(=O)CNC(=O)CNC(=O)CNC(=O)CC[C@H](NC(=O)CNC(=O)CNC(=O)CNC(=O)c2ccc(NN=Cc3ccccc3S(=O)(=O)O)nc2)C(=O)NCC(=O)NCC(=O)NCC(=O)NCCCC[C@@H]2NC(=O)[C@@H](Cc3ccccc3)NC(=O)[C@H](CC(=O)O)NC(=O)CNC(=O)[C@H](CCCNC(=N)N)NC2=O)NC(=O)[C@@H](Cc2ccccc2)NC(=O)[C@H](CC(=O)O)NC(=O)CNC1=O [technetium-99m labelled] — tissue uptake (athymic nu/nu mouse, female, MDA-MB-435 xenograft, blood; intravenous, 30 min): 1.09 ± 0.2 %ID/g
